Measurements pooled from the literature.
Each line is one published result; not all experiments were run side by side. Numbers after ± are the reported error.

| Structure (SMILES) | assay | system | setting | quantity | result |
| --- | --- | --- | --- | --- | --- |
| CC(C)(C)[C@H](NC(=O)C(F)(F)F)C(=O)N1C[C@H]2[C@@H]([C@H]1C(=O)N[C@H](C#N)C[C@@H]1CCNC1=O)C2(C)C | – | human liver microsomes | microsomes 0.5 mg/mL | intrinsic clearance | 34.5 µL/min/mg |
| O=C/C=C/c1ccccc1 | phase II metabolic stability | human liver S9 fraction | 10 µM, pH 7.4, with: UDPGA | intrinsic clearance (scaled) | 358 ± 14 mL/min/kg |
| COc1ccc(S(=O)(=O)N2CCCCC2)cc1C | – | mouse liver microsomes | – | intrinsic clearance | 39 mL/min |
| C[C@]12CC[C@H]3[C@@H](CC=C4CC(O)CC[C@@]43CO)[C@@H]1CCC2O (stereo partly drawn) | – | human liver microsomes | – | intrinsic clearance | 19.2 µL/min/mg protein |
| C[C@]12CC[C@H]3[C@@H](CCC4=CC(=O)CC[C@@]43C)[C@@H]1CC[C@@H]2O | – | mouse liver microsomes | scaled to liver | intrinsic clearance | 1560 mL/min/kg |
| CCCCCCCCCN(C)C | RT-S9 substrate depletion | rainbow trout | shaken incubation | intrinsic clearance in vivo | 326 mL/h/g liver |
| CCNc1nc(N2CC(=O)Nc3cc(OC)ccc32)c2ncccc2n1 | – | mouse liver microsomes | 1 µg/mL, 1 mg protein/mL, with: NADPH | intrinsic clearance | 373 µL/min/mg |
| CC(C)C[C@H](NC(=O)[C@H](Cc1ccccc1)NC(=O)[C@H](Cc1ccccc1)NC(=O)Cc1ccc(-c2ccccc2)cc1)C(=O)N[C@@H](CCCCN)C(=O)N[C@@H](CCCNC(=N)N)C(=O)N[C@H](C(=O)N[C@@H](Cc1c[nH]c2ccccc12)C(=O)N[C@@H](CCCCN)C(=O)N[C@@H](CCCNC(=N)N)C(=O)O)C(C)C | – | human liver microsomes | – | intrinsic clearance | 70.3 mL/min/kg |
| C[C@H]1COCCN1c1nc(NCc2cccnc2C(F)(F)F)c2cccnc2n1 | – | human hepatocytes | donor | intrinsic clearance | < 1 µL/min/10⁶ cells |

A few entries again:
| Structure (SMILES) | assay | system | setting | quantity | result |
| --- | --- | --- | --- | --- | --- |
| C[C@]12CC[C@H]3[C@@H](CC=C4CC(O)CC[C@@]43CO)[C@@H]1CCC2O (stereo partly drawn) | – | human liver microsomes | – | intrinsic clearance | 19.2 µL/min/mg protein |
